# Results pooled from the literature.
# Each numbered part is a random draw from the data of one study; scales do not carry over between parts.

# Block 1 — technique: RNA Bind-n-Seq; form: RNA; sample: in vitro; concentration: 365 nM; relative to: no-protein control; direction: higher = stronger binding
# Target: RNA binding protein fox-1 homolog 2, RRM domain, GST-SBP tag (RBFOX2, Homo sapiens, UniProt O43251-10, residues 100-194)
# Notes: natural RNA segment, single round, ends assumed
# Construct (chain): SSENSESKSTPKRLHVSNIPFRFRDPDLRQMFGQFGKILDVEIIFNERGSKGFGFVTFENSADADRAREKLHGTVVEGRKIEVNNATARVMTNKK
Strand,RBNS enrichment (R)
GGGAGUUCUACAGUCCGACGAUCCAAAUAGAAAAACAAAACCUAUUUUGAUCUUUAGUGCAAACGAGGGCUAGGGACUUAGCCUCCUCCACCACCUCCACACUGCUUCAUUCUGCCAUUCACUCACUGCAGCAUGGAAUUCUCGGGUGCCAA,0.521
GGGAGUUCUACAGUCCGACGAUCACAUUAAUUGCAAGGAGCAUAACGUACAGGCUGUAUGUACAAUCCUGGGCAUUGACUCUGUGACAUUUCUAGCAUAUCCAAGGCACCACCAGUGAUUUCUCCUGUUUCUUUGGAAUUCUCGGGUGCCAA,0.804
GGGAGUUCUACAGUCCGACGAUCCUGUGACCUUUCUUAUUUCCCUGUUAUCAAGGAAACAGUUUUACCUAUUGAGCUAUAAAAAAAAAAAAAAAAAAACCUCUUUAGAUGUUUGCCUCAACAUUCUUUGUCAUUGGAAUUCUCGGGUGCCAA,0.948
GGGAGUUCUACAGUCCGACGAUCUCUUCCCUCCGUGAGGGCCACGCUGUCACCACAGUCCUCCCAGAUGGGUUUUGGAUUAGCAUCAGUCCUGUGUCACCAAGUGCCAAACAGCUGAGGGGUAGAAGUGGGACUGGAAUUCUCGGGUGCCAA,0.693
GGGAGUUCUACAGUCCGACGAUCUCCUAUUCAUUUAGCAGUAGCUCCAUUGGGGGGUAUAGUGGUCAGAAGUAGUUACCGUACCUUAGGAUCAUUUGUAUGUCUACUUUAUCUUAACAAAGAAAACCUGGUGCUGGAAUUCUCGGGUGCCAA,0.664
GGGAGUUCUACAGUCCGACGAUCCUUCCAAGUUGACAGGCAAUUCCCACACUUCCUUCCUGUCCUGAGUGCCCCAGACUUUAACUGUGUAAAUAAGAGUGUUUCAUUCAAAUGUUAAUAAACUUUACACAGUAUGGAAUUCUCGGGUGCCAA,0.503
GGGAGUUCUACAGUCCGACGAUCCCAGCCUCCCCAGGUAGCCACCCUCGAGACACGACCUCAGAGUCUCUGUGUCUCCUAGAAGCCUGACAGAGACCCCCAGGGCAGUGGGUGGGUGGCGGGCUAGAGACCCUUGGAAUUCUCGGGUGCCAA,0.315
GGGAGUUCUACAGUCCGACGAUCUACAUGGGAGAGUCCUGCCUUACUUCUCCUGGACUGGCUUCCUCUUUGAGAAAAUGCACAAAGCUCUGGGAGAAAGCAGCUACCAAGACUAUCUGGAACUGUGUCUGUCAUGGAAUUCUCGGGUGCCAA,0.623

# Block 2 — technique: RNA Bind-n-Seq; form: RNA; sample: in vitro; concentration: 20 nM; notes: 6-mer, flanks averaged, single round; added: 150 mM KCl; relative to: input library; direction: higher = stronger binding
# Target: TAR DNA-binding protein 43, full length, His tag (TARDBP, Homo sapiens, UniProt Q13148, residues 1-414)
Strand,6-mer enrichment (R)
UAUUUG,0.717
AAAUUC,0.576
CGUAUA,0.627
AAUUCC,0.579
ACACAA,0.703
AAAAUA,0.716
AAAGUC,0.564
CUACAC,0.6
ACAUCG,0.641
GGUCCG,1.55
GGGGGA,8.36
CGUCAG,0.834
UCUAAC,0.566
AAAAAA,0.928
GGCCGU,1.45
AAACUC,0.586
CUUCGC,0.586
AGAGUC,0.739
UAUCGG,0.866
CAUCGG,0.92
GAGAUC,0.811

# Block 3 — technique: RNA Bind-n-Seq; form: RNA; sample: in vitro; concentration: 200 nM; notes: whole 134-nt RNA, ends assumed; added: 150 mM KCl; relative to: input library; direction: higher = stronger binding
# Target: Fragile X messenger ribonucleoprotein 1, C-terminal low-complexity region (Fmr1, Mus musculus, UniProt P35922)
Strand,log2 enrichment
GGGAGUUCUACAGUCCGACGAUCGCAGGAAGUAAAAACAAAUGGAAAUGCUUCGGAUAGUGGCAGGGGUGGGGGUUGCUAAGAAAAGGGUGGGAUGGGAGUGGGUAAAGAGUUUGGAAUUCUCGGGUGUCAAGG,0.0252
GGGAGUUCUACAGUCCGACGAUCUGGGAGGUGGAUUUUGUUUAUUUUUUUAGUUCAUUUCCAGGGGUGGGAAUUUUUUUUUAAUAUGUGUCAUGAAUAAAGUUGUUUUUGAAAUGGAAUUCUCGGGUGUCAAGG,0.133
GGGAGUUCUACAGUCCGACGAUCGUCCUGUGCUACACAUCGUAUGUACCGAAUCGGAAAAAAAGGUUUUUGGUUUUUUUGGAAAGUAUUAUGUUACGCCGUUCGGAUCUGCACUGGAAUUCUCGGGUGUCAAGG,-1.22
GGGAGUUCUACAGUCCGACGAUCCACAGACAACACGCACCCACACAGACACAGAGGGAAGGGGUUGGGAUGGGGACAGGGUGCACAGCAGGACGGGGUAGGACCCCAGCCCCUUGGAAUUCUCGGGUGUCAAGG,1.29
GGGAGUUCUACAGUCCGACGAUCUGGGAGGUGGAUUUUGUUUAUUUUUUUAGCUCAUUUCCAGGGGUGGGAAUUUUUUUUUAAUAUGUGUCAUGAAUAAAGUUGAUUUUGAAAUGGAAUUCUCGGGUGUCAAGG,0.185
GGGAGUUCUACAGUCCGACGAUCUCCUGUGCUACACAUCGUAUGUACCGAAUCGGGGUUUUUGGGGUUUGGGGUUUUUGGGGAAAGUAUUAUGUUACGCCGUUCGGAUCUGCAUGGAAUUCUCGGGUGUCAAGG,0.999
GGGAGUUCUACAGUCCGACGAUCUCAAGUCCUGUGCUACACAUCGUAUGUACCGAAUCGGAAAAAGGUUUUUGGUGGAAAGUAUUAUGUUACGCCGUUCGGAUCUGCACUUCCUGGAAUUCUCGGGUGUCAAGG,-0.673
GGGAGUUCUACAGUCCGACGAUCGCAGGAAGUAAAAACAACUGGAAAUGCUUCGGAUAGUGGCAGGGGUGGGGGUUGCUAAGGAAAGGGUGGGAUGGGAGUGGGUAAAGAGUUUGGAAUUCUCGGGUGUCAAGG,0.351
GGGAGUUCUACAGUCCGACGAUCACCAUGCAGGUGGGCAUCUUUGGGAAGUGGGGCAAGGGGGGUAUAGGGAGGGGGGUAACACUUUGGGAACAGGUGGUCCCAGGUCGUUUCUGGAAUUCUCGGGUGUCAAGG,0.654

# Block 4 — technique: aptamer microarray, sandwich; form: DNA with 2'F-ANA; sample: in vitro; concentration: 200 nM; added: Cy3 exosite-II aptamer, 400 nM; direction: higher = stronger binding; strand: GGTTGGTGTGGTTGG
# Target: Prothrombin, mature alpha-thrombin (F2, Homo sapiens, UniProt P00734)
# Notes: whole 15-mer aptamer, many near background
Modification,mean fluorescence intensity [a.u.]
2'F-ANA at 1 3 5 6 8 9 11 14,45.8
2'F-ANA at 2 5 7 8 10 12 15,51.3
2'F-ANA at 1 3 5 6 8 9 10 11 12 14 15,45.9
2'F-ANA at 5 7 8 10 14 15,47.6
2'F-ANA at 1 3 4 5 6 12 15,113
2'F-ANA at 1 4 5 9 12 13 14,47.2
2'F-ANA at 1 2 4 5 7 8 10 12 13 15,53.2
2'F-ANA at 1 2 3 4 5 13,58.8
2'F-ANA at 1 2 5 7 8 9 13 14,47.4
2'F-ANA at 3 5 6 7 8 13 15,121
2'F-ANA at 1 2 3 4 6 8 9 11,156
2'F-ANA at 1 3 5 7 10 11,46.1
2'F-ANA at 1 5 7 9 10 11 12 13,48.4
2'F-ANA at 2 5 6 7 8 12 15,166
2'F-ANA at 3 7 8 9 10 13 14,491
2'F-ANA at 4 5 6 9 10 13 15,85.3
2'F-ANA at 5 7 9 10 11,45.6
2'F-ANA at 1 2 5 7 8 10 11 12,48.1
2'F-ANA at 3 5 6 7,111
2'F-ANA at 1 4 5 9 11 12 15,83.4
2'F-ANA at 2 5 8 9 10 11 13 15,48.9
2'F-ANA at 2 4 5 9 10 11 12 14 15,49.9
2'F-ANA at 1 2 5 10 12 13,47.2
2'F-ANA at 2 10 11,121

# For quick reference, copied from above (block 4):
Modification,mean fluorescence intensity [a.u.]
2'F-ANA at 1 3 4 5 6 12 15,113
2'F-ANA at 1 3 5 6 8 9 10 11 12 14 15,45.9
2'F-ANA at 4 5 6 9 10 13 15,85.3
2'F-ANA at 1 2 3 4 5 13,58.8
2'F-ANA at 3 5 6 7,111
2'F-ANA at 3 7 8 9 10 13 14,491
2'F-ANA at 1 2 5 7 8 10 11 12,48.1
2'F-ANA at 5 7 9 10 11,45.6
2'F-ANA at 1 2 3 4 6 8 9 11,156
